Measured values pooled from the literature.
Each numbered part is a random draw from the data of one study; scales do not carry over between parts. Substitutions count along the parent as printed.

Set 1
Target: Interferon regulatory factor 5, full length, phosphomimetic (IRF5, Homo sapiens, UniProt Q13568-2, residues 1-514, K96S/S451D/S453D/S456D/S462D)
Method: protein-binding microarray
Form: double-stranded DNA, one strand shown
Medium: in vitro
Tested at: 250 nM
Notes: 60-bp whole probe
Added: salmon DNA 0.4 mg/ml
Relative to: random background probes
Direction: higher = stronger binding
Shared flanks, not repeated: GCCTAGCAC … GTCTTGATTCGCTTGACGCTGCTG
Strand	log fluorescence
TTAGATAGCAGTATCGATTAGTGCTAG	6.41 z-score
GACGGTTTCAACTATCGGGACGTGCTA	2.49 z-score
TTAGGTTTCGGCTATCGGTTAGTGCTA	9.22 z-score
GTTTGTGTGTGTATGTGGTCGTGCTAG	0.108 z-score
GACGGACTGCTACCGCTGACGTGCTAG	-0.556 z-score
GAAGGTTTCCTACTGCTGACGTGCTAG	0.267 z-score
TAATTTCCATTTTCTAAATGCGTGCTA	2.07 z-score
TTAGGTTTCCTCCTCCTTTAGTGCTAG	0.512 z-score
TTAGGACTGGACGTTCGGTTAGTGCTA	-0.177 z-score
GACGAACTGGGGTATCGAGAGGTGCTA	0.0138 z-score
TTAGGACTGGATTTCGGTTAGTGCTAG	4.97 z-score
TTTGATTTCAGTCTCGATTAGTGCTAG	3.91 z-score
TTAGAACTGAGCCTCGATTAGTGCTAG	-0.262 z-score
GAAGACTTTGGTTTGTACACGTGCTAG	-0.194 z-score
TCACTTTACTCACTCGGACTGTGCTAG	0.356 z-score
GACGGTCTCGGTTTCGGGATGTGCTAG	3.96 z-score
GACGGTCTCGGTCTTGGGACGTGCTAG	-0.146 z-score
GACGTTTTCGGACTGGGGACGTGCTAG	2.14 z-score
GACGGATTGCTTTTCCTGACGTGCTAG	0.107 z-score

Set 2
Target: RING finger protein unkempt homolog, zinc fingers 1-6, GST-SBP tag (UNK, Homo sapiens, UniProt Q9C0B0, residues 30-357)
Chain of UniProt Q9C0B0 (30-357, looked up): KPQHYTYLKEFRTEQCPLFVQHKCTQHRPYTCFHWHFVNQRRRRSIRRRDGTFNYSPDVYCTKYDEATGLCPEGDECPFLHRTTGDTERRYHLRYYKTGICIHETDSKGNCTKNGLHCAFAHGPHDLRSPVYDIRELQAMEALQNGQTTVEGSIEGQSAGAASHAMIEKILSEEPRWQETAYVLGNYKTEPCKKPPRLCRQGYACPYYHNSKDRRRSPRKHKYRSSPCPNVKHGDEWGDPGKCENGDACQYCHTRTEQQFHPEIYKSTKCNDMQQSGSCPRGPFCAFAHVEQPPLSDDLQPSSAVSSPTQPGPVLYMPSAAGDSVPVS
Method: RNA Bind-n-Seq
Form: RNA
Medium: in vitro
Tested at: not given
Notes: RNA with constant flanks, ends assumed
Relative to: input RNA pool
Direction: higher = stronger binding
Shared flanks, not repeated: GGGAGUUCUACAGUCCGACGAUC … CAACAGAGGAUUGAGCAUCA
Strand	bound/input enrichment
CUGUGAGCGUCUACAGACAGCUCACCAUUUUUGUCCUGUAUCUGUAAACACUUUUUGUUCUCCGUCUUUUUCUUGUAAAAUUGAUGUUCUUUAAAAUCGUUAAUGUAUAACAGGGCUUAU	0.194 ratio
GGCUGGCCCCAGUCCCAAGGAACAAGAGAUGGUCAAGUCGCUAGAGACAUAUCAGGGGACAUCCGGAUUGGGGAAGACACUUGACUGCUAGAAUCAGAGGUUGGACACUAUACAUAAGGA	0.223 ratio
CUGAAGGAAACAGCAUUUAAAUUUAAAGCCCUAAAGAAGGUUGCGCAGUUAGCAGUUAUAAACCGCCUGGAAAAGGCAUUUUGGAACUGGGUAGAAAAUUAUCCAGAUGAAUUUACAAAA	1.5 ratio
UAACAAUAUAUGAUAUAUAAACCUUAAAUGAAAAAAAUGAUCUAUUGCAGAUAUUUGAUGCCGUUUUCUUUUUUAAAUUAAUCAGAAACCCCACUUCCAUUGUAUUGUCUGACACAUGCU	2.2 ratio
CAUUUAAAGUGGCAAAGCUCUAAAGCGUUCUGAGUACUAAAUACAUUUUUAACUUGACUGCCGCUGCCUAUAAACUUUCAGGUAAAGGAAAAAGGGAAGUGCGGGUAGUGGAGAUUUUGC	0.213 ratio
UAUCACAAUGUAUACUCUCGAGAUCCUAAUUAUCUGAAUUUGUUCAUUAUCGUAAUGGAGAACCGAAAUCUCCACAGUCCUGAAUAUCUGGAAAUGGCUUUGCCAUUAUUUUGCAAAGCG	0.188 ratio
UAUGAAUUUGACAAGUUUUGGUUUGAAGAAGAACCAGAAAGCAUUAUGUAUUUCAAUUUGUACCGAGAGAAGUUUCAUGAAAAGAUUAAAGGACUUUUACUGGAUUGUAAUGUAGCACUU	0.453 ratio
AUUUUCACAAGAAUGUUUGCAGAUCCUCAUGGCAAGGUGUUCAGCAUGUUCUUGGAGACUCCCGCCGAUUUCAUACAAGUCCACAAAGAUGAUCUUCAAGAUUGGUUGUUUGUUCUGCUG	0.126 ratio
GAUGUAACUUAAGUGACUGUGAUCCUUUGUCUACCUUUCAGGAUCCCAUCAAAUGGGAUUCCGUUGCCCGAAAGAUACUUGACAGUCUGAAGGCACAGGUGAUAAGAUUUUGUUCUCUGU	0.106 ratio
GACAUUCUUCUCCUUGUUGUCCGAUUGGCUGUGCUGGUGGCUGUCACCCUCACGGUCCCAGCCGUUAUUUUCCCUAUCCGGAGUUCCGUCACUCACUUACUGUGUCCCACAAAAGAGUUC	0.256 ratio
UUCUUGCCCAUGGAAUCUCCAGGGGUGGAAAUAGGGGAUGUGGCCACUGGUGGGCCUUGCUCCGUCCCUGCCUUGUUGUCUUAUGGUCUCCACUUGCUUUUCUGUCUUGUCUUUUUCUUU	0.16 ratio

Set 3
Target: CCNA1, cyclin fold, Cln2 fusion (human)
Method: yeast growth competition, sequencing
Medium: yeast
Notes: weak parent motif
Relative to: not given
Direction: higher = stronger binding
Starting sequence: RRM2 docking peptide (human); SKTARRIFQEPTE; partner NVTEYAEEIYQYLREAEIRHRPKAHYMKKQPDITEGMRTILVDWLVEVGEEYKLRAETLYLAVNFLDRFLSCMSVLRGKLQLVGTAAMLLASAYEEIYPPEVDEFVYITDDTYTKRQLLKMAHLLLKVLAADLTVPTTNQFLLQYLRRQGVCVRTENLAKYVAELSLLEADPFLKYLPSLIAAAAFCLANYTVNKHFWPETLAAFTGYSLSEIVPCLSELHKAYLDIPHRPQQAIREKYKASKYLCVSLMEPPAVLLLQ
Change	normalised enrichment score
SKTARRIFQEATE [P11A]	-0.429
SKTARRIFQAPTE [E10A]	0.163
SKTARRAFQEPTE [I7A]	0.091
SKAARRIFQEPTE [T3A]	-0.239
SKTARRIAQEPTE [F8A]	0.296
SATARRIFQEPTE [K2A]	0.175

Set 4
Target: Sal-like protein 4, full length isoform A (SALL4, Homo sapiens, UniProt Q9UJQ4, residues 1-1053)
Chain of UniProt Q9UJQ4 (whole entry, looked up): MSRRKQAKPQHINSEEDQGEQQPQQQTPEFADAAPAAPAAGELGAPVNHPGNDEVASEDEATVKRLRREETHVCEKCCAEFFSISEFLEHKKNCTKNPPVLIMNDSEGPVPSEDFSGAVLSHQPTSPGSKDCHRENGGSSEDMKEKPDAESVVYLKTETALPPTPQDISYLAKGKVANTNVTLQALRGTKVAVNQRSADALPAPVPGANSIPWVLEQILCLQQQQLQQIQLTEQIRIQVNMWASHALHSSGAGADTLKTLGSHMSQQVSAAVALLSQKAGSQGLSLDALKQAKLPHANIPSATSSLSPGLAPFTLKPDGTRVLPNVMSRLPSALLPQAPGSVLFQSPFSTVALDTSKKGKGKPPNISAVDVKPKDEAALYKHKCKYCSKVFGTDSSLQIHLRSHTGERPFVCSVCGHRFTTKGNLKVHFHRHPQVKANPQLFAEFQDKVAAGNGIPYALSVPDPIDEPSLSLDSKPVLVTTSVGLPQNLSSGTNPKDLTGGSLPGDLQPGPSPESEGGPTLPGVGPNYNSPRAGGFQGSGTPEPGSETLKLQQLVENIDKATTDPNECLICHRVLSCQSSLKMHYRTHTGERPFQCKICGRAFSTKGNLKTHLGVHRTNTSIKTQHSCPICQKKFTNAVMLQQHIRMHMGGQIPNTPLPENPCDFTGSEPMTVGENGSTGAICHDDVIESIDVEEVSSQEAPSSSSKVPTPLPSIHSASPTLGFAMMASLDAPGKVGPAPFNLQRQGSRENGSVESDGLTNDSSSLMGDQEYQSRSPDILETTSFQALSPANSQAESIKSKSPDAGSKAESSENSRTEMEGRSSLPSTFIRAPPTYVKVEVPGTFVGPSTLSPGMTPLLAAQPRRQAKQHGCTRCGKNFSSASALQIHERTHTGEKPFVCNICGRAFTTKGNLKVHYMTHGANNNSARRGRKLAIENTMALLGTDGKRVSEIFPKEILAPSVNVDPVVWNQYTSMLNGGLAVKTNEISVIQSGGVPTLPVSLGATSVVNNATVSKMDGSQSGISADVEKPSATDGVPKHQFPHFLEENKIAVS
Method: universal PBM
Form: double-stranded DNA, one strand shown
Medium: in vitro
Tested at: 600 nM
Notes: 8-mer, flanks averaged, mean of replicates
Direction: higher = stronger binding
Strand	E-score
GGGCATGA	-0.237
AGAAATCG	0.0669
CTAACAGC	-0.0735
GTGCAAAA	0.15
AGCTGCCG	-0.164
TACGGAAA	0.1
AGCTAGTA	0.116
ATCAGGCC	-0.0607
ATACCAGG	-0.0219
ATTGCTTC	0.112
CATTCAAA	0.174
ACACACCA	-0.0186
CGAGTGAA	0.0237
CACATATG	0.144
CGGCAACG	-0.236
CATGGATA	0.122
CTAATAGA	0.248
TAATGTGA	0.26

Set 5
Target: PABPC1L2, full length, GST fusion (mouse, UniProt A0ABA7IW68)
Method: RNAcompete
Form: RNA
Medium: in vitro
Tested at: 20 nM
Notes: 7-mer, probes averaged, single round
Relative to: mean of 7-mers
Direction: higher = stronger binding
Residues (chain): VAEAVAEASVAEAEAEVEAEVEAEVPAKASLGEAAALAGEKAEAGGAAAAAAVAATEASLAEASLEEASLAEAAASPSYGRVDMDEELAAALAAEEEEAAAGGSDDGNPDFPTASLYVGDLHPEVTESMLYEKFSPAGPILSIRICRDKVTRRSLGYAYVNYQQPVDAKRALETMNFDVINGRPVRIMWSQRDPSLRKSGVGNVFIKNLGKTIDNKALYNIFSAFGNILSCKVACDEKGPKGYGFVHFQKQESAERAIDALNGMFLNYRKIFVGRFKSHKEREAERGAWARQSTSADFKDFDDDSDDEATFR
Strand	7-mer Z-score
AGGUGGU	0.066
CCUCGGG	-0.342
ACCGCAU	-0.0808
GCCCGUU	-0.476
GGAUCGG	0.109
CGAGGGC	0.345
CACUCAG	-0.0663
CCUGGCC	-0.414
AGGUGGA	0.289
GAGUCCU	-0.344
GAUGUUC	-0.351
GCACGGG	0.0533
UGUAAGC	-0.161
CAGACAU	-0.0645
UAUUGCU	-0.199
UGCAAUA	0.046
AUUCAUA	-0.0863
GUCGGUC	-0.316
GGGCUGA	0.601
CCGAAUG	-0.124
AUCUUGU	-0.434
GCCACUA	-0.193
AUACUCU	-0.342

Further values, each from its own experiment
Substance	target	test	system	setting	how to read	measurement	value
PhoQ, residues 284 288 289 292 302 303 NLMGRA	PhoP, residues 12 14 15 18 19 GQAIL (Escherichia coli, UniProt P23836)	Sort-seq, refers to: YFP reporter	E. coli	PhoQ-PhoP variant library, added: 10 µM Mg2+	relative to: high Mg2+ state, higher = stronger signaling	fold induction	16.6

A few entries again (set 1):
Strand	log fluorescence
GAAGGTTTCCTACTGCTGACGTGCTAG	0.267 z-score
TTTGATTTCAGTCTCGATTAGTGCTAG	3.91 z-score
TTAGGTTTCGGCTATCGGTTAGTGCTA	9.22 z-score
TTAGGACTGGACGTTCGGTTAGTGCTA	-0.177 z-score
GACGTTTTCGGACTGGGGACGTGCTAG	2.14 z-score
GACGAACTGGGGTATCGAGAGGTGCTA	0.0138 z-score
GTTTGTGTGTGTATGTGGTCGTGCTAG	0.108 z-score
TTAGGACTGGATTTCGGTTAGTGCTAG	4.97 z-score
TTAGATAGCAGTATCGATTAGTGCTAG	6.41 z-score
